Published values gathered from unrelated publications.
Each line is one published result; not all experiments were run side by side.
Target: Mitogen-activated protein kinase kinase kinase 10 (MAP3K10, Homo sapiens, UniProt Q02779)

CNC(=O)C[C@H](Cc1ccc(C#N)cc1)NC(=O)c1cc(-c2ccc(CN[C@H](C)c3ccc(C)cc3)o2)ccc1Cl — activity vs control (enzyme activity, inhibitor; 1 µM): 98%
COc1cc(Nc2nccc(-c3cnn4nc(OC)ccc34)n2)cc(C(F)(F)F)c1 — remaining binding (binding, competition with immobilised ligand; 1 µM): 89%
Cc1cnc2nc1Nc1cccc(c1)COC/C=C/COCc1cc(ccc1OCCN1CCOCC1)N2 — remaining binding (binding, competition with immobilised ligand; 0.1 µM): 67%
C=CC(=O)N1CCc2ccc(-n3c(=O)ccc4cnc5ccc(-c6cnn(C)c6)cc5c43)cc21 — remaining binding (KINOMEscan; 1 µM; baseline: DMSO control): 100%
CN1CC[C@@H](COc2cnc(C#N)cc2-c2ccn3nc(NC(=O)C4CC4)cc3c2)C1 — inhibition (enzyme activity, inhibitor; 1 µM): 11%
C=CC(=O)N1CCCC(n2c(=O)c3ncccc3n(Cc3ccc(Oc4ccccc4)cc3)c2=O)C1 (centres unmarked) — remaining binding (cell-free assay, competition with immobilised ligand; 1 µM): 73%
CCn1cc(C(=O)O)c(=O)c2c(N)c(F)c(NC3CCCCC3)cc21 — inhibition (kinase activity; 0.1 µM, together with: ATP at Km): 3.8%
CNC(=O)C1CCN(c2cc(C)c(F)cc2NC(=O)c2ccc(-c3cc(O)ccc3C)c(C)c2)CC1 — remaining binding (binding, competition with immobilised ligand; 1 µM): 78%
CN1CCN(Cc2ccc(-c3ccc(CO[C@H]4CCC[C@@H]4NC(=O)c4cc(-c5cnn(C)c5)cnc4N)cc3)cc2)CC1 — inhibition (enzyme activity, inhibitor; 0.1 µM): -1%
CC(C)=CC1OC(C)(C)C2C=C3C(=O)C(Cl)=CC(O)C3C3C(O)C4OC4C(=O)C132 (centres unmarked) — remaining binding (cell-free assay, competition with immobilised ligand; 10 µM): 77%
CNC1C[S+]2CC[S+]3CC[S+](C1)[Ru-4]321([N]=C=S)[n]2c3ccc(OC)cc3c3c4c(c5cc(F)c[n+]1c5c32)C(=O)NC4=O (centres unmarked) — remaining binding (KinomeScan; 0.1 µM; baseline: untreated): 80%
NC(=O)[C@@H](O)C[C@H]1CCc2sc3ncnc(O[C@H]4CC[C@H](N5CCOCC5)CC4)c3c21 — inhibition (enzyme activity, inhibitor; 10 µM): 4%
Cc1ccc(-c2c(/C=C(\C#N)C(=O)NC(C)C)n(CCCO)c3ncnc(N)c23)cc1 — remaining binding (cell-free assay, competition with immobilised ligand; 1 µM): 87%
COc1c(Cl)cccc1Nc1c(-c2ccncc2C#C[C@@]2(C)CCCN2C(=O)/C=C/CN(C)C)[nH]c2c1C(=O)NCC2 — remaining binding (binding, competition with immobilised ligand; 3 µM): 70%
Nc1ncc(-c2cc(-c3cnn(CC(F)(F)F)c3)ncc2F)nc1C(=O)NC1CNCC(F)C1 (centres unmarked) — remaining activity (enzyme activity; 1 µM; baseline: DMSO control): 87.5%
CCN1CCN(Cc2ccc(C(=O)Nc3ccc(C)c(NCc4cnc5[nH]ccc5c4OC)c3)cc2C(F)(F)F)CC1 — remaining binding (binding, competition with immobilised ligand; 1 µM): 55%
NC(=O)C[C@H]1CCc2sc3ncnc(O[C@H]4CC[C@H](N5CCOCC5)CC4)c3c21 — inhibition (enzyme activity, inhibitor; 10 µM): -2%
O=C(Cc1ccc(OCc2ccccc2)cc1)NC1(C(=O)O)CCN(C(=O)c2ccc(-c3cccc(Cl)c3)cc2)CC1 — activity vs control (enzyme activity, inhibitor; 10 µM): 103%
Nc1ncc2c(n1)-c1c([nH]c3ccc(C4=CCOCC4)cc13)CCC2 — remaining binding (binding, competition with immobilised ligand; 1 µM): 100%
C=CC(=O)N1Cc2nc(-c3cc(-c4cc(Cl)cnc4Cl)c(F)cc3F)n(-c3ccncn3)c2C1 — inhibition (cell-free assay, inhibitor; 1 µM): -1%

Repeated from above:
C=CC(=O)N1Cc2nc(-c3cc(-c4cc(Cl)cnc4Cl)c(F)cc3F)n(-c3ccncn3)c2C1 — inhibition (cell-free assay, inhibitor; 1 µM): -1%
O=C(Cc1ccc(OCc2ccccc2)cc1)NC1(C(=O)O)CCN(C(=O)c2ccc(-c3cccc(Cl)c3)cc2)CC1 — activity vs control (enzyme activity, inhibitor; 10 µM): 103%
